# Assay results from different studies.
# Compare with care: the assays were run in different laboratories. Several values in a cell are separate wells, animals, samples, runs or records. ± gives the spread as reported.
# U2AF2: U2AF2 148-342 (Homo sapiens, UniProt P26368)
# UniProt P26368, sequence (whole entry, looked up): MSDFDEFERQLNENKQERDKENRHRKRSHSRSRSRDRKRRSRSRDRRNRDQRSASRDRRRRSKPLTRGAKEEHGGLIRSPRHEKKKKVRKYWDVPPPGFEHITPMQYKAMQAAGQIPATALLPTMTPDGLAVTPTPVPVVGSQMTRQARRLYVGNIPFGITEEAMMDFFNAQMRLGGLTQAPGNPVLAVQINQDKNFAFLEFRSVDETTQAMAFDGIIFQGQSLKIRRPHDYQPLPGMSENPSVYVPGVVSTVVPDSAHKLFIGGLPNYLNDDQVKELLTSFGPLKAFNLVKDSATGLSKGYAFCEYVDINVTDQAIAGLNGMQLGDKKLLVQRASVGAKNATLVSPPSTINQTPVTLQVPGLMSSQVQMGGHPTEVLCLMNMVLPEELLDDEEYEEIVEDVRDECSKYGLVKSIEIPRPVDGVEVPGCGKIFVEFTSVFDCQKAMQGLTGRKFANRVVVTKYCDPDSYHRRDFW
# SPT15 full length assumed: SPT15 full length assumed (Saccharomyces cerevisiae, UniProt P13393)
# UniProt P13393, sequence (whole entry, looked up): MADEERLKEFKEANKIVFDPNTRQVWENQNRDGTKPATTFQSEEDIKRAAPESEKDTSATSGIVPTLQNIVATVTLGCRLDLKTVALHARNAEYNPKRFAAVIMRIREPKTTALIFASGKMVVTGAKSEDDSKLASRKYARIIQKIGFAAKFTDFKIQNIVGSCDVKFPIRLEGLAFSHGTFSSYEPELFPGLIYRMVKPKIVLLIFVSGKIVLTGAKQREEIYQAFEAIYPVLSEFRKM
# B1: ATG9 864-997 (Saccharomyces cerevisiae, UniProt Q12142); sequence looked up; chain SFLNNKYSWRKQFQPGQKPELFRIGKHALGPGHNISPAIYSTRNPGKNWDNNNNGDDIKNGTNNATAKNDDNNGNNDHEYVLTESFLDSGAFPNHDVIDHNKMLNSNYNGNGILNKGGVLGLVKEYYKKSDVGR
# B2: PVRIG ECD residues 41-172 S143T/V90L/A83G/G82H/S69N (Homo sapiens, UniProt Q6DKI7); chain LNVRQTPEVWVQVRMEATELSSFTIRCGFLGSGNISLVTVSWGGPNHGGGTTLALLHPERGIRQWAPARQARWETQSSISLILEGSGASSPCANTTFCCKFASFPEGTWEACGSLPPSSDPGLSAPPTPAPILRADL
# B3: designed binder (Homo sapiens); chain MASAARLTMMWEEVTCPICLDPFVEPVSIECGHSFCQECISQVGKGGGSVCPVCRQRFLLKNLRPNRQLANMVNNLKEISQEAREGTQGERCAVHGERLHLFCEKDGKALCWVCAQSRKHRDHAMVPLEEAAQEYQEKLQVALGELRRKQELAEKLEVEIAIKRADWKKTVETQKSRIHAEFVQQKNFLVEEEQRQLQELEKDEREQLRILGEKEAKLAQQSQALQELISELDRRCHSSALELLQEVIIVLERSESWNLKDLDITSPELRSVCHVPGLKKMLRTCAGGGGSGGGGSGGGGSRLDAPSTIAVYRVSYTYAIIYWYSPLAEIDGFELTYGIKDVPGDRTTIKLTEDDGHYVIRHLKPDTEYEVSLISRRGDMSSNPAKITFKTGL
# B4: Pigr 19-135 (Mus musculus, UniProt O70570); chain KSPIFGPQEVSSIEGDSVSITCYYPDTSVNRHTRKYWCRQGASGMCTTLISSNGYLSKEYSGRANLINFPENNTFVINIEQLTQDDTGSYKCGLGTSNRGLSFDVSLEVSQVPELPS
# B5: Cacna1c 1647-1777 (Mus musculus, UniProt Q01815); sequence looked up; chain NALSLQAGLRTLHDIGPEIRRAISGDLTAEEELDKAMKEAVSAASEDDIFRRAGGLFGNHVTYYQSDSRGNFPQTFATQRPLHINKTGNNQADTESPSHEKLVDSTFTPSSYSSTGSNANINNANNTALGR
# B6: CDC48A 1-463 (Arabidopsis thaliana, UniProt P54609); chain MSTPAESSDSKSKKDFSTAILERKKSPNRLVVDEAINDDNSVVSLHPATMEKLQLFRGDTILIKGKKRKDTVCIALADETCEEPKIRMNKVVRSNLRVRLGDVISVHQCPDVKYGKRVHILPVDDTVEGVTGNLFDAYLKPYFLEAYRPVRKGDLFLVRGGMRSVEFKVIETDPAEYCVVAPDTEIFCEGEPVKREDEERLDDVGYDDVGGVRKQMAQIRELVELPLRHPQLFKSIGVKPPKGILLYGPPGSGKTLIARAVANETGAFFFCINGPEIMSKLAGESESNLRKAFEEAEKNAPSIIFIDEIDSIAPKREKTNGEVERRIVSQLLTLMDGLKSRAHVIVMGATNRPNSIDPALRRFGRFDREIDIGVPDEIGRLEVLRIHTKNMKLAEDVDLERISKDTHGYVGADLAALCTEAALQCIREKMDVIDLEDDSIDAEILNSMAVTNEHFHTALGNSN
# B7: NOTCH4 276-511 (Homo sapiens, UniProt Q99466); sequence looked up; chain NPDNCVSHQCQNGGTCQDGLDTYTCLCPETWTGWDCSEDVDECETQGPPHCRNGGTCQNSAGSFHCVCVSGWGGTSCEENLDDCIAATCAPGSTCIDRVGSFSCLCPPGRTGLLCHLEDMCLSQPCHGDAQCSTNPLTGSTLCLCQPGYSGPTCHQDLDECLMAQQGPSPCEHGGSCLNTPGSFNCLCPPGYTGSRCEADHNECLSQPCHPGSTCLDLLATFHCLCPPGLEGQLCE
# B8: Mena EVH1 1-113 (Homo sapiens, UniProt Q8N8S7); chain MSEQSICQARAAVMVYDDANKKWVPAGGSTGFSRVHIYHHTGNNTFRVVGRKIQDHQVVINCAIPKGLKYNQATQTFHQWRDARQVYGLNFGSKEDANVFASAMMHALEVLNS
# B9: FRS2 PTB domain (Homo sapiens, UniProt Q8WU20); chain VPDNHRNKFKVINVDDDGNELGSGIMELTDTELILYTRKRDSVKWHYLCLRRYGYDSNLFSFESGRRCQTGQGIFAFKCARAEELFNMLQEIMQNNSINVVEE
# B10: EFR3A 721-791 (Homo sapiens, UniProt Q14156); chain SNTEEITFEALKKAIDTSGMEEQEKEKRRLVIEKFQKAPFEEIAAQCESKANLLHDRLAQILELTIRPPPS
# B11: human DDX3X; sequence looked up; chain SHVAVENALGLDQQFAGLDLNSSDNQSGGSTASKGRYIPPHLRNREATKGFYDKDSSGWSSSKDKDAYSSFGSRSDSRGKSSFFSDRGSGSRGRFDDRGRSDYDGIGSRGDRSGFGKFERGGNSRWCDKSDEDDWSKPLPPSERLEQELFSGGNTGINFEKYDDIPVEATGNNCPPHIESFSDVEMGEIIMGNIELTRYTRPTPVQKHAIPIIKEKRDLMACAQTGSGKTAAFLLPILSQIYSDGPGEALRAMKENGRYGRRKQYPISLVLAPTRELAVQIYEEARKFSYRSRVRPCVVYGGADIGQQIRDLERGCHLLVATPGRLVDMMERGKIGLDFCKYLVLDEADRMLDMGFEPQIRRIVEQDTMPPKGVRHTMMFSATFPKEIQMLARDFLDEYIFLAVGRVGSTSENITQKVVWVEESDKRSFLLDLLNATGKDSLTLVFVETKKGADSLEDFLYHEGYACTSIHGDRSQRDREEALHQFRSGKSPILVATAVAARGLDISNVKHVINFDLPSDIEEYVHRIGRTGRVGNLGLATSFFNERNINITKDLLDLLVEAKQEVPSWLENMAYEHHYKGSSRGRSKSSRFSGGFGARDYRQSSGASSSSFSSSRASSSRSGGGGHGSSRGFGGGGYGGFYNSDGYGGNYNSQGVDWWGN
# UniProt Q9NWS0, sequence (whole entry, looked up): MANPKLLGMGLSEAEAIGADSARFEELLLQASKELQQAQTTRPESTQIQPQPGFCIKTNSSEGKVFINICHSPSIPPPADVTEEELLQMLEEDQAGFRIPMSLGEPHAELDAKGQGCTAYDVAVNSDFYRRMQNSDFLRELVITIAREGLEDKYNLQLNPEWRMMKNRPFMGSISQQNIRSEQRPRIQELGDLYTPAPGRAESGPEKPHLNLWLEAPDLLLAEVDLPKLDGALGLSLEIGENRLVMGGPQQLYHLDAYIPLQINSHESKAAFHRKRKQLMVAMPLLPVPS
# UniProt Q06671, sequence (whole entry, looked up): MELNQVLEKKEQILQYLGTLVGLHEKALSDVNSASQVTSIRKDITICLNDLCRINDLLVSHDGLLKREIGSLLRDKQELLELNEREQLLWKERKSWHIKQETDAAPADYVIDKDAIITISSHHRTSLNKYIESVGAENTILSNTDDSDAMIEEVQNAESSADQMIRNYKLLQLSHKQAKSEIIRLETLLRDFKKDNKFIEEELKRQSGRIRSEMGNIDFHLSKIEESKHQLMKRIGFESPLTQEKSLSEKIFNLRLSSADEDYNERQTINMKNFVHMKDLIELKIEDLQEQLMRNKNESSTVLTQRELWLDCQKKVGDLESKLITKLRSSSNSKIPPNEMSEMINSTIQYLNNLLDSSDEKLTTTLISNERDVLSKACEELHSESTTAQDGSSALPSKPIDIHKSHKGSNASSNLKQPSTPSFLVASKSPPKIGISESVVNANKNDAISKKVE
# UniProt P04191, sequence (whole entry, looked up): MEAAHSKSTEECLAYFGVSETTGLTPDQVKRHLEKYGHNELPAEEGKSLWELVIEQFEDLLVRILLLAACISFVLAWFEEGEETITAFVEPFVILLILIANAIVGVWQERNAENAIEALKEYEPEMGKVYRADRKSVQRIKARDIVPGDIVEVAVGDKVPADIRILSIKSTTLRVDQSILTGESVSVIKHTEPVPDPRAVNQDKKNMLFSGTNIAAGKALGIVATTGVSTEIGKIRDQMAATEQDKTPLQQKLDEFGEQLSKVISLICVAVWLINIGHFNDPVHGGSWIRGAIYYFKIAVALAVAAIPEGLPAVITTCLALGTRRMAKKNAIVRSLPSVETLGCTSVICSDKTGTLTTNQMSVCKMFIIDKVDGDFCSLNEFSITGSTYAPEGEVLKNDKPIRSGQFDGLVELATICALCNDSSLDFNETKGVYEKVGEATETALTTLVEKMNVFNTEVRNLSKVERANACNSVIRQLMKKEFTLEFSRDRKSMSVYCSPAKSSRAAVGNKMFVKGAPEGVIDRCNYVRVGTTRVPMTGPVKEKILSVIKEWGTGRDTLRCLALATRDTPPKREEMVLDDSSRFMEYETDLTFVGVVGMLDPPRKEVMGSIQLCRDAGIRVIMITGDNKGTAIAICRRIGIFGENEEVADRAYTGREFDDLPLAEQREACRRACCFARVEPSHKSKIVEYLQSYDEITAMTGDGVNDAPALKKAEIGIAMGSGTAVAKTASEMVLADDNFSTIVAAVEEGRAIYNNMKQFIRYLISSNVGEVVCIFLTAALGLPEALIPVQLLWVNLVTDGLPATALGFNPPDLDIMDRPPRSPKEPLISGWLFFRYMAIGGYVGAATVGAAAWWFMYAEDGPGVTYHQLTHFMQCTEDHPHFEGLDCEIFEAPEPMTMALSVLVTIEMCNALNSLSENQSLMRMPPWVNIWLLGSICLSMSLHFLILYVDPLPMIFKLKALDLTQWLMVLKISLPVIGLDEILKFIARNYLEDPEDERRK
# UniProt Q4V3D3, sequence (whole entry, looked up): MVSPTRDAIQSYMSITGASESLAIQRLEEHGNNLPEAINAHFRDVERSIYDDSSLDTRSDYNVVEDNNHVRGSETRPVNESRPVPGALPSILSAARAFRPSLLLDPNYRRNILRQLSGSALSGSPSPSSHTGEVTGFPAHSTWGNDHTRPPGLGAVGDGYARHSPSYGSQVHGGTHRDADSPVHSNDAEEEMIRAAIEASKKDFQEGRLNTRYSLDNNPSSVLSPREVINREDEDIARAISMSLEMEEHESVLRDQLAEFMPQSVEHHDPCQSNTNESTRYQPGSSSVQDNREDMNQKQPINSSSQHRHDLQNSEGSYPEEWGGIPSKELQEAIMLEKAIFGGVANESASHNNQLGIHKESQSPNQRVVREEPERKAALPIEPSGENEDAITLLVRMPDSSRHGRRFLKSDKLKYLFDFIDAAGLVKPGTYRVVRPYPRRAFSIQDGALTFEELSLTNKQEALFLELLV
# UniProt Q92692, sequence (whole entry, looked up): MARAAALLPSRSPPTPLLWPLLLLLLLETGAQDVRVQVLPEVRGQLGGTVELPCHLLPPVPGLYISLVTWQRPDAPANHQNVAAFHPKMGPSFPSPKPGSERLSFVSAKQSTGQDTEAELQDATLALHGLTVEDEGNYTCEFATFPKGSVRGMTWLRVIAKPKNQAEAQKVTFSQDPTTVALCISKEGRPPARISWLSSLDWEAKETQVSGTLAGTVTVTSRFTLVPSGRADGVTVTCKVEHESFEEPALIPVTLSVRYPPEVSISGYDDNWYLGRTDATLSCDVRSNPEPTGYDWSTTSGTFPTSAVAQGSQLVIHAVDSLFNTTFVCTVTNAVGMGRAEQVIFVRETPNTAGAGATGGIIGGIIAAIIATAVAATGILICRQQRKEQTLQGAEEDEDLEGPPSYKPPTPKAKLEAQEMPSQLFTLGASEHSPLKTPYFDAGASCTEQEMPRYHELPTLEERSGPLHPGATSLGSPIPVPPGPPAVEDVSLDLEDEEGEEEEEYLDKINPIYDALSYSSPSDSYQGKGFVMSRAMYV
# UniProt Q23985, sequence (whole entry, looked up): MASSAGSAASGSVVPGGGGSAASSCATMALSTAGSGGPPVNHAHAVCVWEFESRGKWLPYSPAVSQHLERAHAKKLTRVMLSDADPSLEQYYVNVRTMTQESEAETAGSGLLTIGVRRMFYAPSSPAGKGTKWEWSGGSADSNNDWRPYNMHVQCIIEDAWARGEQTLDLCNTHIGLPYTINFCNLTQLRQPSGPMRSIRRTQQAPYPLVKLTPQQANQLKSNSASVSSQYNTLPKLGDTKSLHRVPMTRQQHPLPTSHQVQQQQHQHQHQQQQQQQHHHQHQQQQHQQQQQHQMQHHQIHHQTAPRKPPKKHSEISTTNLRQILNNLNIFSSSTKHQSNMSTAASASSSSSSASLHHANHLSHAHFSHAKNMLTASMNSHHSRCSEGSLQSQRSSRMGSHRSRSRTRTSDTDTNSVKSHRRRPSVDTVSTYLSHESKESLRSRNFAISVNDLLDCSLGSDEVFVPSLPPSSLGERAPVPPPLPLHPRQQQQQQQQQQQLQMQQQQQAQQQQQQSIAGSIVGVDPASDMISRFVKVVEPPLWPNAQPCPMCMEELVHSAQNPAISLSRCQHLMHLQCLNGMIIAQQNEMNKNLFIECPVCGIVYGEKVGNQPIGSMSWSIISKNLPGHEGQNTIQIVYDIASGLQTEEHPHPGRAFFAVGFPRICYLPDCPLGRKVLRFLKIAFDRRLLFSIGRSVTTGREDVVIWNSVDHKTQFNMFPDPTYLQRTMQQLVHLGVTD
# UniProt O75530, sequence (whole entry, looked up): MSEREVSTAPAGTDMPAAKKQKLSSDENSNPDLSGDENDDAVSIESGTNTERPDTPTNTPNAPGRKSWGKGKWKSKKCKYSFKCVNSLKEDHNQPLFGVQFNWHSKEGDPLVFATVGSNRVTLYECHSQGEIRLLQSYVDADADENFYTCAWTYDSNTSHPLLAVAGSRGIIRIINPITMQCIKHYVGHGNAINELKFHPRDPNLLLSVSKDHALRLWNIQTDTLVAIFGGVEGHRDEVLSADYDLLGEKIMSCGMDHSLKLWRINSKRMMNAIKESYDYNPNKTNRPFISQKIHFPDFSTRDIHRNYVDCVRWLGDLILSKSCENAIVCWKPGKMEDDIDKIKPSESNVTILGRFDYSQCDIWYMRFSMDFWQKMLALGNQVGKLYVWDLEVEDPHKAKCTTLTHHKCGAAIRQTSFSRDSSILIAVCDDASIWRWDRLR
Substance,tested on,assay,test system,setting,scale,quantity,value
Cacna1c distal C-terminal regulatory (Rattus norvegicus),"CACNA1C IQ motif 1644-1668, fluorescein label (UniProt P15381)",fluorescence polarisation,,,,Kd,14000 ± 5000 nM
human CDO1,CYB5R4 knockout human cells,"PP4 interaction, 3xFLAG-PP4C IP-MS",,concentration not given,relative to: CYB5R4 KO over parental,log2 fold change,-2.92
B1 (ATG9 864-997),"Atg23 full-length, dimer (yeast, UniProt Q06671)",ITC,,"pH 8, 20 °C, NaCl 150 mM",,Kd,790 nM
SIQEHMAIDVCPGPIRPIKQISDYFPRFPRGLPPTAAPRAPAPPDAPA (Doc2b 13-60 (Mus musculus)),Unc13a MUN domain del1453-1531 (Rattus norvegicus),ITC,,,,Kd,230 ± 30 nM
"SDLACRLLGQSMDESGLPQLTSYDCEVNAPIQGSGSRNLLQGEELLRALDQVN (HIF-1α CTAD 776-826 GS insertion (Homo sapiens, UniProt Q16665); sequence looked up)","Crebbp 340-439 (Mus musculus, UniProt P45481)",fluorescence polarisation,,,,Kd,70 nM
CUCUUAACU (ssRNA),U2AF2,sequencing of bound RNA,RNA,motif only,,Kd,2300 nM
B2,"NECTIN2 32-350 (Homo sapiens, UniProt Q92692)",SPR,designed binder,,,Kd,77 nM
SWC5 fragment (Saccharomyces cerevisiae),H2A/H2B dimer (Homo sapiens),ITC,,,,Kd,6200 nM
B3 (designed binder),"EED (Homo sapiens, UniProt O75530)",BLI,designed binder,,,Kd,> 3800 nM
"KLLMIIHDRREFAKFEKEKMNAKWDTQENPIYKSPINNFKNPNYGRKAGL (ITGB1 752-801 (Homo sapiens, UniProt P05556-5); sequence looked up)","Tln2 312-408 T358N (Mus musculus, UniProt Q71LX4)",NMR titration,,,,Kd,50000 nM
YAGSDSDLDSDDEFVPY (TELO2 483-497 (Homo sapiens); pS491),"PIH1D1 1-180 (Homo sapiens, UniProt Q9NWS0)",ITC,peptide,,,Kd,3100 nM
Notch ankyrin domain H215A/M216A/R218A/R107A (Drosophila),"dx (Drosophila melanogaster, UniProt Q23985)",AUC,,,,Kd,20700 nM
B4 (Pigr 19-135),Igha/Jchain CH2-CH3 with J chain Y135A/P136A/D137A (Mus musculus),SPR,,,,Kd,> 2000 nM
"APGVPRIEEEKSEEE (CRYAB residues 131-145 (Homo sapiens, UniProt P16220))",KIX CBP L628A (Mus musculus),fluorescence anisotropy,peptide,,,Kd,700 nM
B5 (Cacna1c 1647-1777),"jph2 1-455 S165F (Danio rerio, UniProt A0ACM8QCS2)",ITC,,,,Kd,63600 nM
DNA 1 CTAATATACACGGATACAAAAGAAATACACATAATTCAATTCAATCGGTCC / DNA 2 GGACCGATTGACTTGAATTATGTGTATTTCTTTTGTATCCGTGTATATTAG (dsDNA; blunt; C:T mismatch; 5'-amino-C6 primer),SPT15 full length assumed,EMSA,double-stranded DNA,,,Kd,37 ± 14 nM
B6 (CDC48A 1-463),"PUX9 (Arabidopsis thaliana, UniProt Q4V3D3)",ITC,,25 °C,,Kd,8200 ± 1600 nM
B7 (NOTCH4 276-511),"DLL4 27-400 G28S/F107L/I143F/H194Y/L206P/N257P/T271L/F280Y/S301R/Q305P (Homo sapiens, UniProt Q9NR61)",SPR,,,,Kd,24 nM
CTCAGGAATTCCTCTAAAGTAATGTGGAGCTCAGTTCAAGTCAATCGGTCC (dsDNA; 5'-amino-C6 primer),SPT15 full length assumed,array,"double-stranded DNA, one strand shown",TBP alone,,Kd,9.84 ± 0.31 nM
MAML1 fragment (Homo sapiens),"RBPJ 25-449 (Homo sapiens, UniProt Q06330)",ITC,,,,Kd,> 20000 nM
B8 (Mena EVH1 1-113),PTP1B (Homo sapiens),intrinsic tryptophan fluorescence,,,,Kd,13800 nM and 8400 nM
CCAUUUUCU (ssRNA),U2AF2,sequencing of bound RNA,RNA,motif only,,Kd,1090 nM
"GRIN2A fragment, pS1459 (sequence not shown)",SNX27 fragment (Rattus norvegicus),ITC,,,,Kd,13700 nM
B9 (FRS2 PTB domain),"FGFR1 (Homo sapiens, UniProt P11362)",ITC,,,,Kd,9900 nM
ENAH EVH1 domain (Homo sapiens),ABI3 peptide (Homo sapiens),BLI,,,,Kd,25700 nM
"KDR (Homo sapiens, UniProt P35968)","ramucirumab IgG, PBS-stressed 14 d, Fc heavy chain Asn deamidation",SPR,,,,Kd,0.25 nM
ANK1 fragment (Rattus norvegicus),"ATP2A1 (Oryctolagus cuniculus, UniProt P04191)",far-Western,,,,Kd,444 nM
B10 (EFR3A 721-791),TTC7A/FAM126B FAM126B 1-308,BLI,,,,Kd,0.473 nM
B11 (human DDX3X),PP6C (human),"co-immunoprecipitation, IP-MS",CYB5R4 knockout cells,concentration not given,relative to: CYB5R4 knockout over parental,log2 fold change,-0.12
